# Measurements of several laboratories.
# Every numbered part comes from another study and shows a few of its results, in no order.
# UniProt Q13976, sequence (whole entry, looked up): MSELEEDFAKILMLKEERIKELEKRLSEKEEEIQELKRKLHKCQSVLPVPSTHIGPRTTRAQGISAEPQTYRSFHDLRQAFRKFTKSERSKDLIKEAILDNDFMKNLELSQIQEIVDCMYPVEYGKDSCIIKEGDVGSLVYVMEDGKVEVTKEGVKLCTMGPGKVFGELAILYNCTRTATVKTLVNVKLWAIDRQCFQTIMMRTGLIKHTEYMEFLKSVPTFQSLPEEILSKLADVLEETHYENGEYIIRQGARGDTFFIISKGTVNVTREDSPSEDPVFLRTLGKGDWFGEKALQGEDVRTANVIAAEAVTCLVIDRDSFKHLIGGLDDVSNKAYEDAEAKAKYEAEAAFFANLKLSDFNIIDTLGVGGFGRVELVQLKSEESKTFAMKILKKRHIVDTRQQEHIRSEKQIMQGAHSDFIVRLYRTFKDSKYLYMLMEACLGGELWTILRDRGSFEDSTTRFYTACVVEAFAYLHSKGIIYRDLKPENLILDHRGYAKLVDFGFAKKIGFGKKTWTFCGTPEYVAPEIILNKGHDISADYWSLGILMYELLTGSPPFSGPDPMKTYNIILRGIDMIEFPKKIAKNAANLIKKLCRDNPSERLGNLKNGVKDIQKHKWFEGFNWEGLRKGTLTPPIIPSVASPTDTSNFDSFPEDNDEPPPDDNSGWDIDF
# UniProt Q9UKE5, sequence (whole entry, looked up): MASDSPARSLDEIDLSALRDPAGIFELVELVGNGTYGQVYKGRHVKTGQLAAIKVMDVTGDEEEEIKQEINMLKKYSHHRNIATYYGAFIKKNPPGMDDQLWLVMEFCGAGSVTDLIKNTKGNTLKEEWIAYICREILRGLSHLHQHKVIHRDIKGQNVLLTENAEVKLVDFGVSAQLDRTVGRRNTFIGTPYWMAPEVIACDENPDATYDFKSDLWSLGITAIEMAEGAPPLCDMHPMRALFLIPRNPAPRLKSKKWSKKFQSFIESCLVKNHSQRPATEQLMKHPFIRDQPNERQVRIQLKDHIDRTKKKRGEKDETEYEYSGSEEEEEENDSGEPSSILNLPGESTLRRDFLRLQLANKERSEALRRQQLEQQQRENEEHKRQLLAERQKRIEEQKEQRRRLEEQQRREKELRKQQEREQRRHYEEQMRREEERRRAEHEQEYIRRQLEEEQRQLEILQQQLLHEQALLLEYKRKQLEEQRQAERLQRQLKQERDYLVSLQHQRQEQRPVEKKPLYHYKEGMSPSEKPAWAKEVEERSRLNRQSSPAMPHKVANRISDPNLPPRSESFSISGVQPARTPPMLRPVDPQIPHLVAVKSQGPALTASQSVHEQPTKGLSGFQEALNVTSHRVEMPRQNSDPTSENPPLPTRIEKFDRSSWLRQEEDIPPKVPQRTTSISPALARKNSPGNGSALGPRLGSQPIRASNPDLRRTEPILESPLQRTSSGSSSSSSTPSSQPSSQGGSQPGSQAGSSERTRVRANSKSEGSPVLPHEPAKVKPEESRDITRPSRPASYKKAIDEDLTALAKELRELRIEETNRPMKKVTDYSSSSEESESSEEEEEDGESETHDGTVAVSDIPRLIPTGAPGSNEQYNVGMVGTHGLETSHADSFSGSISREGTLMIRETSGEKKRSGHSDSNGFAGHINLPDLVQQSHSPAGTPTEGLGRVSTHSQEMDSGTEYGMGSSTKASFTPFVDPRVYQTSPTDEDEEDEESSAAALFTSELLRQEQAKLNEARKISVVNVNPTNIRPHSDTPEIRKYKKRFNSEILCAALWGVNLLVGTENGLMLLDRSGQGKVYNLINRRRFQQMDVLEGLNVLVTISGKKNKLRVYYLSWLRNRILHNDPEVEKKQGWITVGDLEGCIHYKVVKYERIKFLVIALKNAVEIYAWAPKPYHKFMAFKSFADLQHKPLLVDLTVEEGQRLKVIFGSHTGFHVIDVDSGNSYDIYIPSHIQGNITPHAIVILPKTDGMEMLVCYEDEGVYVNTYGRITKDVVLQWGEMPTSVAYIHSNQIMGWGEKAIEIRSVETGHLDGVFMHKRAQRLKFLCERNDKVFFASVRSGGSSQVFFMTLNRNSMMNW
# UniProt P51812, sequence (whole entry, looked up): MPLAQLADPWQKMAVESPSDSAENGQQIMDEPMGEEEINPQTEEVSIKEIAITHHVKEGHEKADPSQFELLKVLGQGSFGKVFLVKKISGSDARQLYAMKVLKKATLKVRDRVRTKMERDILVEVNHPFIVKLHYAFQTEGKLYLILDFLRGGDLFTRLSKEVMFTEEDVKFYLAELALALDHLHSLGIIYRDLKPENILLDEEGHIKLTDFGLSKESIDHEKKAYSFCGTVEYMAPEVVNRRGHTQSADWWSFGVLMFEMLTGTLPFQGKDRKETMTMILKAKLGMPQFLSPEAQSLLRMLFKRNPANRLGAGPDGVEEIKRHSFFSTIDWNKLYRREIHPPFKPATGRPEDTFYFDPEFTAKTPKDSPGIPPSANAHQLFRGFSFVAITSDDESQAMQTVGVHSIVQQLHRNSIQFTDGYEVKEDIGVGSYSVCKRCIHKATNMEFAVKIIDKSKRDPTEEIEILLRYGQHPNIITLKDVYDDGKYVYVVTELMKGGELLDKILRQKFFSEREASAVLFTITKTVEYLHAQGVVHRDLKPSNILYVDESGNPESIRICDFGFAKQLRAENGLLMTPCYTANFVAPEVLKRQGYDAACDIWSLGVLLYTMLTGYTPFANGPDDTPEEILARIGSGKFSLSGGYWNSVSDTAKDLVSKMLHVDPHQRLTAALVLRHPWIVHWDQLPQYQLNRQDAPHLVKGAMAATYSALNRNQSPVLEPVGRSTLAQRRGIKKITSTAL
# UniProt O75676, sequence (whole entry, looked up): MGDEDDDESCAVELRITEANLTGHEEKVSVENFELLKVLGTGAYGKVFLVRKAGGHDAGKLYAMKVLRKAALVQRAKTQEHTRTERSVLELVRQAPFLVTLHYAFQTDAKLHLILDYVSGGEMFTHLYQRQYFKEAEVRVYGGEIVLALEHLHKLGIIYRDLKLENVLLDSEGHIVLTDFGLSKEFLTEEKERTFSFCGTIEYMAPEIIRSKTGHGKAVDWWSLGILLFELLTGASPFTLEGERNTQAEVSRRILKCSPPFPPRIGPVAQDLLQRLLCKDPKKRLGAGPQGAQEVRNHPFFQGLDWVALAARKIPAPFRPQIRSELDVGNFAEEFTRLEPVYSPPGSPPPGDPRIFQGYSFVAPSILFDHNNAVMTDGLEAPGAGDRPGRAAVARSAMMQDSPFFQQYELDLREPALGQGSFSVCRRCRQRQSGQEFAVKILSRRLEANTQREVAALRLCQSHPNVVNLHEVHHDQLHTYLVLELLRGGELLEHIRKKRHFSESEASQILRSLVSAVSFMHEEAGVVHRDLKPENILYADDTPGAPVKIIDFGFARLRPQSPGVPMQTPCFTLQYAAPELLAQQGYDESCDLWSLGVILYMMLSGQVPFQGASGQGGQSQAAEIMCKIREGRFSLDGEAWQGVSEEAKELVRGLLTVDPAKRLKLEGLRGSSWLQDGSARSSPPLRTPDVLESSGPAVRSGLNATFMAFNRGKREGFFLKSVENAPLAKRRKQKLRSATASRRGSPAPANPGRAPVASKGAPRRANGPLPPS
# UniProt Q00532, sequence (whole entry, looked up): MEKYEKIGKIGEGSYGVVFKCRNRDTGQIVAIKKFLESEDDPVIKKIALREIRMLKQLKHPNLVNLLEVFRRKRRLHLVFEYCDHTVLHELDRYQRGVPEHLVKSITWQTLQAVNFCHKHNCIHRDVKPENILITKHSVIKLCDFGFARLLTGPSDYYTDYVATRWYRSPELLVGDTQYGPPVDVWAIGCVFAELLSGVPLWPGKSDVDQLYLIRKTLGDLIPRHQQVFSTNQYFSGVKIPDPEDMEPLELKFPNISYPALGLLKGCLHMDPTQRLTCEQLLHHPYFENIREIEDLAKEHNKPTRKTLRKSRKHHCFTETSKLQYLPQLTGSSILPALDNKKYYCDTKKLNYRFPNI

# Series 1
# Target: Serine/threonine-protein kinase Nek9 (NEK9, Homo sapiens, UniProt Q8TD19)
# UniProt Q8TD19, sequence (whole entry, looked up): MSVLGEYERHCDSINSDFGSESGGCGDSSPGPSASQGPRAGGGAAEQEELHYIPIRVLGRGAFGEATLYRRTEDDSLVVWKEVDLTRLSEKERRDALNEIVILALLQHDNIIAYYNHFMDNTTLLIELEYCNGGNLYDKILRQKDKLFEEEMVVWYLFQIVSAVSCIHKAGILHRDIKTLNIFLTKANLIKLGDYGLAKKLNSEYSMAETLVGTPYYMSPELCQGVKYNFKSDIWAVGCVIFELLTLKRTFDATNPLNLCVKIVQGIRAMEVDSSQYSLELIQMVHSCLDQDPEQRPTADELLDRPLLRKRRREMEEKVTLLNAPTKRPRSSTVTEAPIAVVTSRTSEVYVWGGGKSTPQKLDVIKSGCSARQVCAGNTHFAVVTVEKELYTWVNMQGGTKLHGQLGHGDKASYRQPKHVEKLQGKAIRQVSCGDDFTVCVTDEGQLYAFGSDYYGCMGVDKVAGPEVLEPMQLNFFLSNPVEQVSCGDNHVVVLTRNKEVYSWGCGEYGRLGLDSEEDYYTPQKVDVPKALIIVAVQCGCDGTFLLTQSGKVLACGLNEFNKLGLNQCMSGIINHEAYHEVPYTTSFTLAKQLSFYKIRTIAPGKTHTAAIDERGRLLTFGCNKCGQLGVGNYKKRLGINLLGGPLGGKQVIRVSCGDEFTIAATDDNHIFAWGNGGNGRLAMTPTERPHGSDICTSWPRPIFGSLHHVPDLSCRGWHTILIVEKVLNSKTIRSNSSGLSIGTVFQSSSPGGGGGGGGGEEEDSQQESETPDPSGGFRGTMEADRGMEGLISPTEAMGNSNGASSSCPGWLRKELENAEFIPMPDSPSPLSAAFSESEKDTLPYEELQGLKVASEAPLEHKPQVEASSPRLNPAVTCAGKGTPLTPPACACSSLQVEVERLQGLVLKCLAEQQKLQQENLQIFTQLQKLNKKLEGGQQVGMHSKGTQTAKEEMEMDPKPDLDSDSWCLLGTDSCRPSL
# Effect on: enzyme activity
# Mode: inhibitor
# Concentration: 0.5 µM
# Baseline: control
Compound,remaining activity [%]
COc1cc2c(Nc3ccc(Br)cc3F)ncnc2cc1OCC1CCN(C)CC1,101
Nc1nc(Nc2ccc(S(N)(=O)=O)cc2)nn1C(=S)Nc1c(F)cccc1F,39.1
O=C(c1ccccc1)c1ccc(N2CCOCC2)cc1O,103
COc1ccc2c(c1)c(C1=C(c3c[nH]c4ccccc34)C(=O)NC1=O)cn2CCCN(C)C,90.3
CNc1cc2c(Nc3cccc(Br)c3)ncnc2cn1,99.4
O=c1cc(N2CCOCC2)oc2c(-c3ccccc3)cccc12,101
N#Cc1cnc2cnc(NCc3cccnc3)cc2c1Nc1ccc(F)c(Cl)c1,96.3
O=Nc1c(-c2c(O)[nH]c3ccccc23)[nH]c2ccccc12,95.4
CC(C)(C)c1nc2c3cc[nH]c(=O)c3c3cc(F)ccc3c2[nH]1,71.7
Cc1cc(Nc2cc(N3CCN(C)CC3)nc(Sc3ccc(NC(=O)C4CC4)cc3)n2)[nH]n1,102
O=C1NC(=O)c2c1c1c3ccccc3[nH]c1c1[nH]c3cc(Br)ccc3c21,83.6
O=C(c1cc2cc(O)ccc2[nH]1)c1cc2cc(O)ccc2[nH]1,93.6
N#C/C(=C(/N)SC1C=CC=CC1)c1cccc(C(O)c2ccncc2)c1 (centres unmarked),99
O=C1c2ccccc2-c2nc3nnnn3nc21,119
CCCCc1c(-c2ccc(O)cc2)[nH]c2nccnc12,105
c1cc(-c2cnn3cc(-c4ccc(OCCN5CCCCC5)cc4)cnc23)ccn1,96.4
CC(C)n1cnc2c(Nc3cccc(Cl)c3)nc(NCCO)nc21,81.1
N#CC(c1ccnc(NCCc2cccnc2)n1)c1nc2ccccc2s1 (centres unmarked),94.4
c1ccc2c(-c3ccncc3)c[nH]c2c1,101
O=C(O)/C=C/c1cc(Br)c(Br)c(Br)c1Br,94.7
NC(=O)c1cccc(-c2cc(Nc3ccc(OC(F)(F)F)cc3)ncn2)c1,93.8
O=C1NC(=O)/C(=C/c2ccc3c(c2)OC(F)(F)O3)S1,109
CN(C)S(=O)(=O)c1ccc2c(c1)/C(=C/c1cc3c([nH]1)CCCC3)C(=O)N2,93.2
c1ccc(-c2n[nH]c3c2oc2ccccc23)cc1,99
O=Nc1c(-c2c(O)[nH]c3cc(Br)ccc23)[nH]c2ccccc12,96.3

# Series 2
# SMILES: Cc1cc(NC(=O)c2cccc(S(F)(F)(F)(F)F)c2)cc(-n2ccn3nc(-c4cccnc4)cc23)c1
# Effect on: cell-free assay
# Method: competition with immobilised ligand
# Concentration: 1 µM
target,remaining binding [%]
"Ribosomal protein S6 kinase alpha-3, N-terminal kinase domain (RPS6KA3, Homo sapiens, UniProt P51812)",66.6
"TNIK (Homo sapiens, UniProt Q9UKE5)",100
"Ribosomal protein S6 kinase alpha-4, C-terminal kinase domain (RPS6KA4, Homo sapiens, UniProt O75676)",100
"KIT (Homo sapiens, UniProt P10721, T670I/V559D)",91.3
"CDKL1 (Homo sapiens, UniProt Q00532)",84.5
"PRKG1 (Homo sapiens, UniProt Q13976)",100
"HIPK1 (Homo sapiens, UniProt Q86Z02)",49.1

# Series 3
# Method: PRP chromatography
# Setting: linear fit, 1 mL
Structure (SMILES),"logD 1,9-decadiene/water [log units]"
CC(C)C[C@@H]1NC(=O)[C@H](Cc2cscn2)NC(=O)[C@H](CC(C)C)NC(=O)[C@@H](CCC(=O)N2CCCC2)NC(=O)[C@H](CC(C)C)NC(=O)[C@@H](CC(C)C)NC(=O)[C@H](CC(C)C)NC1=O,-0.0339
CC(C)C[C@@H]1NC(=O)[C@H](Cc2cscn2)NC(=O)[C@H](Cc2cscn2)NC(=O)[C@H](CCC(=O)N2CCCC2)NC(=O)[C@@H](CCC(=O)N2CCCC2)NC(=O)[C@H](CC(C)C)NC(=O)[C@@H](CC(C)C)NC1=O,-2.14
CC(C)C[C@@H]1NC(=O)[C@H](Cc2cscn2)NC(=O)[C@H](CCC(=O)N2CCCC2)NC(=O)[C@@H](CCC(=O)N2CCCC2)NC(=O)[C@H](CC(C)C)NC(=O)[C@@H](CC(C)C)NC(=O)[C@H](CC(C)C)NC1=O,-1.2
CC(C)C[C@@H]1NC(=O)[C@H](C(C)C)NC(=O)[C@@H](CC(C)C)NC(=O)[C@@H](CC(C)C)NC(=O)[C@@H](CCC(=O)N2CCCC2)NC(=O)[C@H](CC(C)C)NC(=O)[C@@H](CC(C)C)NC1=O,0.481
CC(C)C[C@@H]1NC(=O)[C@H](CCC(=O)N2CCCC2)NC(=O)[C@H](CCC(=O)N2CCCC2)NC(=O)[C@@H](Cc2cscn2)NC(=O)[C@H](CC(C)C)NC(=O)[C@@H](CC(C)C)NC(=O)[C@H](CC(C)C)NC1=O,-1.21
CC(C)C[C@@H]1NC(=O)[C@H](CC(C)C)NC(=O)[C@@H](C(C)C)NC(=O)[C@@H](C)NC(=O)[C@H](C)NC(=O)[C@@H](CC(C)C)NC(=O)[C@H](C)NC1=O,-2.32
CC(C)C[C@@H]1NC(=O)[C@H](CC(C)C)NC(=O)[C@H](CC(C)C)NC(=O)[C@H](CC(C)C)NC(=O)[C@@H](Cc2cscn2)NC(=O)[C@@H](CC(C)C)NC(=O)[C@H](C)NC1=O,-0.0319
CC(C)C[C@@H]1NC(=O)[C@H](C(C)C)NC(=O)[C@H](Cc2cscn2)NC(=O)[C@H](CCC(=O)N2CCCC2)NC(=O)[C@@H](CCC(=O)N2CCCC2)NC(=O)[C@H](CC(C)C)NC(=O)[C@@H](CC(C)C)NC1=O,-1.96
CC(C)C[C@@H]1NC(=O)[C@@H](C)NC(=O)[C@H](Cc2cscn2)NC(=O)[C@@H](CC(C)C)NC(=O)[C@H](C(C)C)NC(=O)[C@H](CC(C)C)NC(=O)[C@@H](CC(C)C)NC1=O,0.604
CC(C)C[C@@H]1NC(=O)[C@H](CC(C)C)NC(=O)[C@H](CC(C)C)NC(=O)[C@@H](C)NC(=O)[C@H](C(C)C)NC(=O)[C@H](Cc2cscn2)NC(=O)[C@H](C)NC1=O,-3
CC(C)C[C@@H]1NC(=O)[C@H](C)NC(=O)[C@@H](C(C)C)NC(=O)[C@H](C(C)C)NC(=O)[C@H](CC(C)C)NC(=O)[C@@H](CC(C)C)NC(=O)[C@H](CC(C)C)NC1=O,0.0587
CC(C)C[C@@H]1NC(=O)[C@H](Cc2cscn2)NC(=O)[C@H](CCC(=O)N2CCCC2)NC(=O)[C@H](CCC(=O)N2CCCC2)NC(=O)[C@@H](Cc2cscn2)NC(=O)[C@H](CC(C)C)NC(=O)[C@@H](CC(C)C)NC1=O,-2.14

# Series 4
# Target: Diamine acetyltransferase 1 (Homo sapiens, UniProt P21673)
# Mode: inhibitor
# Concentration: 10 µM
# Baseline: control
# Residues (P21673 1-171): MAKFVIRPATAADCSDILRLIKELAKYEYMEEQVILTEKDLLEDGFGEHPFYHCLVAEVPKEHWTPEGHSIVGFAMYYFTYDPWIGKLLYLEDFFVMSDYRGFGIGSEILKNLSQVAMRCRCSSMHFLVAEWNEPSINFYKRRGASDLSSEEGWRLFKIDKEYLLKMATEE
SMILES,remaining activity [%]
COc1c(O)cc2oc(-c3ccc(O)cc3)cc(=O)c2c1O,99.4
O=C[C@H](O)[C@@H](O)[C@H](O[C@H]1O[C@H](CO)[C@@H](O[C@H]2O[C@H](CO)[C@@H](O[C@H]3O[C@H](CO)[C@@H](O)[C@H](O)[C@H]3O)[C@H](O)[C@H]2O)[C@H](O)[C@H]1O)[C@H](O)CO,85.9
O=C(CCc1ccccc1)C[C@@H](O)/C=C/c1ccccc1,101
CC1(C)[C@@H](O[C@H]2O[C@H](C(=O)O)[C@@H](O)[C@H](O)[C@H]2O[C@@H]2O[C@H](C(=O)O)[C@@H](O)[C@H](O)[C@H]2O)CC[C@]2(C)[C@H]3C(=O)C=C4[C@@H]5C[C@@](C)(C(=O)O)CC[C@]5(C)CC[C@@]4(C)[C@]3(C)CC[C@@H]12,90.1
COc1ccccc1/C=C/C(=O)O,102
CCC/C=C1\OC(=O)C2=C1CCC=C2,94.2
CCCCC/C=C\C/C=C\CCCCCCCC(=O)OCC(O)CO (centres unmarked),93.4
NCCCC(=O)O,104
CC(=O)OCc1ccccc1,111

# Excerpt of the above (series 1):
Compound,remaining activity [%]
N#Cc1cnc2cnc(NCc3cccnc3)cc2c1Nc1ccc(F)c(Cl)c1,96.3
Nc1nc(Nc2ccc(S(N)(=O)=O)cc2)nn1C(=S)Nc1c(F)cccc1F,39.1
Cc1cc(Nc2cc(N3CCN(C)CC3)nc(Sc3ccc(NC(=O)C4CC4)cc3)n2)[nH]n1,102
CN(C)S(=O)(=O)c1ccc2c(c1)/C(=C/c1cc3c([nH]1)CCCC3)C(=O)N2,93.2
CNc1cc2c(Nc3cccc(Br)c3)ncnc2cn1,99.4
COc1cc2c(Nc3ccc(Br)cc3F)ncnc2cc1OCC1CCN(C)CC1,101
COc1ccc2c(c1)c(C1=C(c3c[nH]c4ccccc34)C(=O)NC1=O)cn2CCCN(C)C,90.3
N#CC(c1ccnc(NCCc2cccnc2)n1)c1nc2ccccc2s1 (centres unmarked),94.4
